Assay results gathered from unrelated publications.
Lines come from different studies, so protocols differ. “And” joins repeats or separate records; there may be more than shown.
Voltage-dependent P/Q-type calcium channel subunit alpha-1A: Voltage-dependent P/Q-type calcium channel subunit alpha-1A (Homo sapiens, UniProt O00555)
UCHL1: Ubiquitin carboxyl-terminal hydrolase isozyme L1 (UCHL1, Homo sapiens, UniProt P09936)

| Compound | tested on | test | system | conditions | how to read | quantity | value |
| --- | --- | --- | --- | --- | --- | --- | --- |
| [2H]c1cc(C)c(NC(=O)c2cnc(Nc3cc(N4CCCCC4)nc(C)n3)s2)c(Cl)c1 | PDGFRA (Homo sapiens, UniProt P16234, D842V) | – | – | 0.01 µM | – | inhibition | < 30% |
| CC[C@]12CCCN3CCc4c([nH]c5ccccc45)[C@]31N(Cc1cn(Cc3ccccc3)nn1)C(=O)C2 | PRLHR (Homo sapiens, UniProt P49683) | beta-arrestin recruitment, antagonist, PathHunter chemiluminescence | – | 20 µM, together with: agonist at EC80 | – | inhibition | 59% |
| O=C(Nc1cccc2c(=O)cc(-c3nnn[nH]3)oc12)c1ccc(OCCCCc2ccccc2)cc1 | LRRC8A/LRRC8C (Homo sapiens, UniProt Q8IWT6+Q8TDW0, Y124F/Y126F) | ion current, whole-cell patch clamp | HCT LRRC8-/- cells | 1 µM, +100 mV, Y124F/Y126F heteromers | – | inhibition | -0.301% and 43% and 9.05% and -10.2% and -5.89% and -5.04% |
| Cn1cc(-c2cnc3ccc(NC(=O)Nc4ccc(F)c(Br)c4)cc3n2)cn1 | MAP3K4 (Homo sapiens, UniProt Q9Y6R4) | kinase binding, KiNativ profiling, refers to: Lys2 peptide | PANC-1 lysate | 7.5 µM | – | inhibition | 12.4% |
| Cc1cc(-c2ccnc3[nH]cc(F)c23)cc(F)c1[C@@]1(O)[C@H](C)CN(C(=O)CN)C[C@@H]1C | STK38L (Homo sapiens, UniProt Q9Y2H1) | ATP probe binding, KiNativ, refers to: Lys2 site | HEK293T cell lysate | 0.1 µM | – | inhibition | -6.2% |
| Cc1cc(C)cc(COc2cc3c(cc2OCc2cc(C)cc(C)c2)[C@H]2C[C@](O)(Cc4cn(Cc5ccc(Cl)c(Cl)c5)nn4)C[C@H](C)N2CC3)c1 | Rab GDP dissociation inhibitor beta, with Rab1A (Homo sapiens, UniProt P50395) | GDI2-Rab1A interaction, NanoLuc complementation | – | 6.25 µM | – | inhibition | 92.4% |
| CNCC[C@H](Oc1cccc2ccccc12)c1cccs1 | Voltage-dependent P/Q-type calcium channel subunit alpha-1A | ion current, antagonist | HEK293 | 30 µM | – | inhibition | 31% |
| O=C(CNc1cccc2ccccc12)N/N=C/c1ccc([N+](=O)[O-])o1 | Trypanosoma cruzi | reporter translation, Renilla luciferase mRNA translation | cell-free extract | 40 µM | baseline: DMSO | inhibition | 14.7% |
| CN(C(=O)n1cnc(-c2ccc[n+]([O-])c2)c1)C1CCCCC1 | Faah (Rattus norvegicus, UniProt P97612) | enzyme activity, inhibitor | rat, liver | 0.1 mg/kg, 8 h | – | inhibition | inhibited |
| CNCC[C@@H](Oc1ccccc1C)c1ccccc1 | Voltage-dependent P/Q-type calcium channel subunit alpha-1A | ion current, antagonist | HEK293 | 10 µM | – | inhibition | 52% |
| Cc1cc(-c2ccnc3[nH]cc(F)c23)cc(F)c1[C@@]1(O)[C@H](C)CN(C2CCS(=O)(=O)CC2)C[C@@H]1C | LATS1 (Homo sapiens, UniProt O95835) | ATP probe binding, KiNativ, refers to: Lys2 site | HEK293T cell lysate | 10 µM | – | inhibition | 90.5% |
| CC(C)c1noc2ncc(C(=O)c3ccccc3O)cc12 | A-type voltage-gated potassium channel KCND3 (Rattus norvegicus, UniProt Q62897) | ion current, whole-cell patch-clamp | – | 10 µM, rKv4.3 | – | inhibition | 12.9% |
| COc1ccccc1NC(=O)C(C#N)=Cc1ccccc1F | UCHL1 | covalent, intact protein LC-MS | – | 12.5 µM | – | labelling | 17% |
| C=C(NC(=O)C(=C)NC(=O)c1csc(C2=N[C@@H]3c4csc(n4)[C@H]4NC(=O)c5csc(n5)[C@H]([C@](C)(O)[C@@H](C)O)NC(=O)[C@H]5CSC(=N5)/C(=C/C)NC(=O)[C@H]([C@@H](C)O)NC(=O)c5csc(n5)[C@]3(CC2)NC(=O)[C@H](C)NC(=O)C(=C)NC(=O)[C@H](C)NC(=O)[C@H]([C@@H](C)CC)N[C@@H]2C=Cc3c([C@H](C)O)cc(nc3[C@H]2O)C(=O)O[C@@H]4C)n1)C(N)=O | TXNRD1 (Homo sapiens, UniProt Q16881) | enzyme activity | – | 50 µM, 1 h, pH 8.0, 37 °C | – | inhibition | no inhibition |
| CN[C@H]1CC[C@@H](c2ccc(Cl)c(Cl)c2)c2ccccc21 | Voltage-dependent P/Q-type calcium channel subunit alpha-1A | ion current, antagonist | HEK293 | 3 µM | – | inhibition | 72% |
| CC(NC(=O)C(C#N)=Cc1ccccc1F)c1ccccc1 (stereo not drawn) | UCHL1 | covalent, intact protein LC-MS | – | 12.5 µM | – | labelling | 34% |
| CC[C@@H]1C(=O)OC[C@@H]1Cc1cncn1C.Cl | Voltage-dependent P/Q-type calcium channel subunit alpha-1A | ion current, antagonist | – | 10 µM | – | inhibition | 8% |
| CC[C@@H]1[C@H](F)C(=O)N[C@@H]1COc1nccc2cc(C(N)=O)c(OC)cc12 | TLK2 (Homo sapiens, UniProt Q86UE8) | ATP-site probe binding, ActivX profiling | THP-1 cell lysate | 0.2 mM, Lys1 site | – | inhibition | 18.7% |
| O=[N+]([O-])c1cn2c(n1)O[C@@H](COc1ccc(-c3ccc(F)cc3)nc1)CC2 | Trypanosoma cruzi | reporter translation, Renilla luciferase mRNA translation | cell-free extract | 40 µM | baseline: DMSO | inhibition | -5.4% |
| CN1C(N)=N[C@](C)(c2cc(NC(=O)c3ccc(F)cn3)ccc2F)CS1(=O)=O | Voltage-dependent P/Q-type calcium channel subunit alpha-1A | ion current, antagonist | – | 30 µM | – | inhibition | 80% |
| Cc1ncc([N+](=O)[O-])n1C(=NO)c1ccccc1C(F)(F)F | CAMKI kinase | – | – | 10 µM | – | inhibition | 13.3% |

Some of these lines once more:
| Compound | tested on | test | system | conditions | how to read | quantity | value |
| --- | --- | --- | --- | --- | --- | --- | --- |
| CN[C@H]1CC[C@@H](c2ccc(Cl)c(Cl)c2)c2ccccc21 | Voltage-dependent P/Q-type calcium channel subunit alpha-1A | ion current, antagonist | HEK293 | 3 µM | – | inhibition | 72% |
| O=C(CNc1cccc2ccccc12)N/N=C/c1ccc([N+](=O)[O-])o1 | Trypanosoma cruzi | reporter translation, Renilla luciferase mRNA translation | cell-free extract | 40 µM | baseline: DMSO | inhibition | 14.7% |
